Measured values from different studies.
A part holds a random share of what one study measured.
Sequence of UniProt Q8TF76 (whole entry, looked up): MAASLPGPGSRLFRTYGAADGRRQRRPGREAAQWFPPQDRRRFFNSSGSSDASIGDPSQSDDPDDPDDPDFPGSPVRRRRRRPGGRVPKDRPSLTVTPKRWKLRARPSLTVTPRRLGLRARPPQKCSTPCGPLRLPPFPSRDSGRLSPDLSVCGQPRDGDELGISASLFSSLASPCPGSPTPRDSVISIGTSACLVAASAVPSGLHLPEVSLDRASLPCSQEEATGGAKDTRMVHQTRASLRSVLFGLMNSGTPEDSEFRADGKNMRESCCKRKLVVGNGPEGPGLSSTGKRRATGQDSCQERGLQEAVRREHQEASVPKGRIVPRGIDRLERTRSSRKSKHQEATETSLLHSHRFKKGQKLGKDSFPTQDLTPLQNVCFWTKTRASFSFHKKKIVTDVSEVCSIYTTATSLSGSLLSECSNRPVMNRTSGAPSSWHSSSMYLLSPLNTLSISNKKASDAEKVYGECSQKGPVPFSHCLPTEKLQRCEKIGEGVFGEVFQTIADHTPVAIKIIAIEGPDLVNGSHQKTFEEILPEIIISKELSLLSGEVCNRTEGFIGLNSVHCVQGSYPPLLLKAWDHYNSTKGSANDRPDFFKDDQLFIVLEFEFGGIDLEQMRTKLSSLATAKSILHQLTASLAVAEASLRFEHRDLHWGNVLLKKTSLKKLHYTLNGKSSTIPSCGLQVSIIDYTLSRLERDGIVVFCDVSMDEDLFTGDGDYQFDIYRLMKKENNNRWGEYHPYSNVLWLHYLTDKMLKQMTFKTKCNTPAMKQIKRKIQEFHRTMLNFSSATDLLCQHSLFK
Sequence of UniProt Q2M2I8 (whole entry, looked up): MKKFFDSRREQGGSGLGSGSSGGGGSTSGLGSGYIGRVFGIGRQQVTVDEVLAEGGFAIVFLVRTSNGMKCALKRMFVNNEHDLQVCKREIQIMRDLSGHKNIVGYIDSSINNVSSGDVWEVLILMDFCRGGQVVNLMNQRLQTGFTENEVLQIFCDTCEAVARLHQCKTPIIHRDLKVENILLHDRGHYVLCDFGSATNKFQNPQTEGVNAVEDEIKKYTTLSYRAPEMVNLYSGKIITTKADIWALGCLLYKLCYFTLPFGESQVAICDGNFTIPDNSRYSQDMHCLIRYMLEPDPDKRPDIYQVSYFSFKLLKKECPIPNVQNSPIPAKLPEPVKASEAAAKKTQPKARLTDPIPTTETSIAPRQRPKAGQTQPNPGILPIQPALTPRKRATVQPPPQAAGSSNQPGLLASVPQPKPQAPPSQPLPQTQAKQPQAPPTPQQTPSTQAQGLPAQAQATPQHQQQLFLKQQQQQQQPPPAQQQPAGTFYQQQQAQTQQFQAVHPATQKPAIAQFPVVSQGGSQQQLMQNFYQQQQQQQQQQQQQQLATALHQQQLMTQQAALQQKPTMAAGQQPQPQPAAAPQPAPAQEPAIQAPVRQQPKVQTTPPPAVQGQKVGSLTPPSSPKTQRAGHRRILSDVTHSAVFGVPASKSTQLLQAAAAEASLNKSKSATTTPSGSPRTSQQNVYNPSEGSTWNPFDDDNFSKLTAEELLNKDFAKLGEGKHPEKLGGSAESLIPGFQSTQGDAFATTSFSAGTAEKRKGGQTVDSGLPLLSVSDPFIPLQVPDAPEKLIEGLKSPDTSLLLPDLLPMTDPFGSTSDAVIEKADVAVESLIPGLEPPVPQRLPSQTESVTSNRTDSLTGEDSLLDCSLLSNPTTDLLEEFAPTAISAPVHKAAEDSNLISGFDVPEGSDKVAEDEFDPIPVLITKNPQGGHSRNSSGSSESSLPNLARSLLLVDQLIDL
Sequence of UniProt Q09013 (whole entry, looked up): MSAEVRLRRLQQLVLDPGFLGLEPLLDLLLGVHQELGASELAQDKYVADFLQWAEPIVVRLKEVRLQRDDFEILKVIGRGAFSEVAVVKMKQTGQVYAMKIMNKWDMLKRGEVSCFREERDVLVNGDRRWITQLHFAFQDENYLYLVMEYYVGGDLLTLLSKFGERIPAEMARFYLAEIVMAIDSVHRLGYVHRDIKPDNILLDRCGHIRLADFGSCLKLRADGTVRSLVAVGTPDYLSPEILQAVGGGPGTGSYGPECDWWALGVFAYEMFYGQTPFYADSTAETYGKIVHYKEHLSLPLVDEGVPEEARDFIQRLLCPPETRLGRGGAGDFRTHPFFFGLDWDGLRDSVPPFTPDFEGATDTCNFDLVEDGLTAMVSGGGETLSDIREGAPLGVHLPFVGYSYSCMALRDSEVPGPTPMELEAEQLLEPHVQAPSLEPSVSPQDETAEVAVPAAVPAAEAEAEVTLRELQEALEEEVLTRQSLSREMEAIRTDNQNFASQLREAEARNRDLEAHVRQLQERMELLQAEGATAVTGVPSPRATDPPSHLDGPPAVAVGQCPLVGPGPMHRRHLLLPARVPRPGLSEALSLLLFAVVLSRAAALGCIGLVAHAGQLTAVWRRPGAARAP

Block 1 — method: RNAcompete; form: RNA; medium: in vitro; concentration: 20 nM; notes: 7-mer, probes averaged, single round; baseline: mean of 7-mers; reading: higher = stronger binding
Target: PABPC1L2, full length, GST fusion (mouse, UniProt A0ABA7IW68)
Target sequence (chain): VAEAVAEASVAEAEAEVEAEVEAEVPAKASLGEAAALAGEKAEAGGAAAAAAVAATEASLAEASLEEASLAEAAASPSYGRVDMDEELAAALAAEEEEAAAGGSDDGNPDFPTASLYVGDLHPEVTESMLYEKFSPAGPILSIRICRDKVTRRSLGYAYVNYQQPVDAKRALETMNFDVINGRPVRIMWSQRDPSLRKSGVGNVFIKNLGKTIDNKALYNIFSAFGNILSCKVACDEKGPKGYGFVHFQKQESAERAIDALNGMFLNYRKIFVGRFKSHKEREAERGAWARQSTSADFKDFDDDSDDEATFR
Oligonucleotide | 7-mer Z-score
UCUUUUU | -0.186
AGACUCC | -0.307
AACUGGA | 0.148
UCUCGCC | -0.456
ACGCUCU | -0.271
CGCGGAG | -0.0754
GCCACAC | -0.322
AAAACGU | 2.61

Block 2 — concentration: 1 µM
Structure (SMILES): CN(C)CC#Cc1ccc(OCCCc2sc(N3CCc4cccc(C(=O)Nc5nc6ccccc6s5)c4C3)nc2C(=O)O)c(F)c1
target | read-out | method | remaining binding [%]
DMPK (Homo sapiens, UniProt Q09013) | cell-free assay | competition with immobilised ligand | 100
HASPIN (Homo sapiens, UniProt Q8TF76) | cell-free assay | competition with immobilised ligand | 100
AAK1 (Homo sapiens, UniProt Q2M2I8) | binding |  | 91

Block 3 — method: Spec-seq; form: double-stranded DNA, one strand shown; medium: in vitro; concentration: not given; notes: whole probe, mean of replicates; baseline: not given; reading: lower = stronger binding; all sequences stand within: GAGTCGTCTCGTCAGCAC … CCGTAGAGCACTCAGGTC
Target: Transcription factor SOX-2, HMG box (Sox2, Mus musculus, UniProt P48432, residues 41-119)
Sequence of UniProt P48432 (41-119, looked up): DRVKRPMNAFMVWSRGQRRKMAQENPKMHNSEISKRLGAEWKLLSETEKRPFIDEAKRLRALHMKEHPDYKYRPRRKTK
Oligonucleotide | relative binding energy
CATCCGA | 1.06 ln ratio
CATCTCA | 0.768 ln ratio
CATCCTG | 0.703 ln ratio
AATTGTT | -2.52 ln ratio
CATATGG | -0.104 ln ratio
CATAAGG | -0.458 ln ratio
CATATAC | -0.184 ln ratio
CGGCGTT | 1.64 ln ratio

Further values, each from its own experiment — read-out: enzyme activity; mode: inhibitor; concentration: 0.5 µM; baseline: control
Target: Ephrin type-A receptor 3 (EPHA3, Homo sapiens, UniProt P29320)
One construct used (P29320 1-983): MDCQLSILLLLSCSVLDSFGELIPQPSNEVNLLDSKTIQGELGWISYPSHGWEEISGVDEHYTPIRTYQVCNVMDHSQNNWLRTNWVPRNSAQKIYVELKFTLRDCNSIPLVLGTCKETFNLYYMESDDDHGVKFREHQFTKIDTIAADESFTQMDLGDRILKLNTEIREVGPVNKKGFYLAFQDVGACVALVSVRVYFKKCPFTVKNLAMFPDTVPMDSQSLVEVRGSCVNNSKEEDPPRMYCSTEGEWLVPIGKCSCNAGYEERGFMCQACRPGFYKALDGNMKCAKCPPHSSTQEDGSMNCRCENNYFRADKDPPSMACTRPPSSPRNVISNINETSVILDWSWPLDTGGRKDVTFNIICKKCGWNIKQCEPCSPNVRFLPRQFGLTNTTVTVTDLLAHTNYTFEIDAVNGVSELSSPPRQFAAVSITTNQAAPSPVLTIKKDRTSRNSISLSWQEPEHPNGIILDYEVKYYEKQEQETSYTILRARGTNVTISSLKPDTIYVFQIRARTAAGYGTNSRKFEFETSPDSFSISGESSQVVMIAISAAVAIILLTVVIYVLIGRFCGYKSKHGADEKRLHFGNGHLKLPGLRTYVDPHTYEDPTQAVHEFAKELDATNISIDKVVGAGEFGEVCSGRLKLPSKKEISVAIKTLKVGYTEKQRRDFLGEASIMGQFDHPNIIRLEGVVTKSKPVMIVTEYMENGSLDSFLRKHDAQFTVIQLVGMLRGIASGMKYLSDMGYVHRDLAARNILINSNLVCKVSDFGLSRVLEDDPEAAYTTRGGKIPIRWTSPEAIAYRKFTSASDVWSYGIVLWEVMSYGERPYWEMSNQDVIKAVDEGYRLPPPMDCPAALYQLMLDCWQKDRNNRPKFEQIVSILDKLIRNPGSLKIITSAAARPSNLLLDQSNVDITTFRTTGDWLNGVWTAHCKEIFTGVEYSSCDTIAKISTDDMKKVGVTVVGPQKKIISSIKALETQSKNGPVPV
SMILES | remaining activity [%]
COc1ccc(OC)c2c(=S)c3ccccc3[nH]c12 | 94.9
Cc1cccc(-c2[nH]c(C(C)(C)C)nc2-c2ccc3c(c2)OCO3)n1 | 101

Repeated from above (block 2):
target | read-out | method | remaining binding [%]
HASPIN (Homo sapiens, UniProt Q8TF76) | cell-free assay | competition with immobilised ligand | 100
AAK1 (Homo sapiens, UniProt Q2M2I8) | binding |  | 91
DMPK (Homo sapiens, UniProt Q09013) | cell-free assay | competition with immobilised ligand | 100
